Assay results of several laboratories.
Each line is one published result; not all experiments were run side by side.
Histone H3.1: Histone H3.1 (Homo sapiens, UniProt P68431)
SMC5: SMC5 (Saccharomyces cerevisiae, UniProt Q08204)
Chain of UniProt Q08204 (whole entry, looked up): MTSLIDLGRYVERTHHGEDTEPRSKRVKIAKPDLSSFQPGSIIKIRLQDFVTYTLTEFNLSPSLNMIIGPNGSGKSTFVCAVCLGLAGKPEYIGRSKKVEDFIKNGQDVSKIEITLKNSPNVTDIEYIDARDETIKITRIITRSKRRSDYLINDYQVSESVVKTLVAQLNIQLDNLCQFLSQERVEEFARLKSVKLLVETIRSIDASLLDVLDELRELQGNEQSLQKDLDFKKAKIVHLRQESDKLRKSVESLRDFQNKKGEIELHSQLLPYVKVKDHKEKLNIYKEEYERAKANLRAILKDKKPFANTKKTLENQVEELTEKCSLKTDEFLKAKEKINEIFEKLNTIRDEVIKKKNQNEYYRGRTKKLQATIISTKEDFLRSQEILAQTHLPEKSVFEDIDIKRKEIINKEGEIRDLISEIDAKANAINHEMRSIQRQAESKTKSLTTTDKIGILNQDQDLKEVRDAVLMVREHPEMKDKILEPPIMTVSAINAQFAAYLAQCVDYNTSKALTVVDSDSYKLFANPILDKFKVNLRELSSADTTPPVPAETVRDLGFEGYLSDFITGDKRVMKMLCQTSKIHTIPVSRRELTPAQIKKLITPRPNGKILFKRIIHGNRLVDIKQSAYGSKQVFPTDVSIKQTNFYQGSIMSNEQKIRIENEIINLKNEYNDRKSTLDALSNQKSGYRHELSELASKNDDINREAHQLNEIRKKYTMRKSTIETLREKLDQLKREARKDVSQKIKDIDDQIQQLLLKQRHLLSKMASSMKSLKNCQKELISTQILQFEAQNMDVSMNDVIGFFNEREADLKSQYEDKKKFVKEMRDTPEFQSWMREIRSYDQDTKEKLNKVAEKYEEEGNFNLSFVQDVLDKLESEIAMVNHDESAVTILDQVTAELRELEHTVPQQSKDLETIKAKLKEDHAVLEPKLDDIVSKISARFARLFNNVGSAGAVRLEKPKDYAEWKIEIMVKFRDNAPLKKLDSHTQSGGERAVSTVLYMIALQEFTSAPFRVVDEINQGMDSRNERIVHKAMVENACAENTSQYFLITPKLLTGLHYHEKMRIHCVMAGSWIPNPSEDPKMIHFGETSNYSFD
MCM6: MCM6 (Saccharomyces cerevisiae, UniProt P53091)
Chain of UniProt P53091 (whole entry, looked up): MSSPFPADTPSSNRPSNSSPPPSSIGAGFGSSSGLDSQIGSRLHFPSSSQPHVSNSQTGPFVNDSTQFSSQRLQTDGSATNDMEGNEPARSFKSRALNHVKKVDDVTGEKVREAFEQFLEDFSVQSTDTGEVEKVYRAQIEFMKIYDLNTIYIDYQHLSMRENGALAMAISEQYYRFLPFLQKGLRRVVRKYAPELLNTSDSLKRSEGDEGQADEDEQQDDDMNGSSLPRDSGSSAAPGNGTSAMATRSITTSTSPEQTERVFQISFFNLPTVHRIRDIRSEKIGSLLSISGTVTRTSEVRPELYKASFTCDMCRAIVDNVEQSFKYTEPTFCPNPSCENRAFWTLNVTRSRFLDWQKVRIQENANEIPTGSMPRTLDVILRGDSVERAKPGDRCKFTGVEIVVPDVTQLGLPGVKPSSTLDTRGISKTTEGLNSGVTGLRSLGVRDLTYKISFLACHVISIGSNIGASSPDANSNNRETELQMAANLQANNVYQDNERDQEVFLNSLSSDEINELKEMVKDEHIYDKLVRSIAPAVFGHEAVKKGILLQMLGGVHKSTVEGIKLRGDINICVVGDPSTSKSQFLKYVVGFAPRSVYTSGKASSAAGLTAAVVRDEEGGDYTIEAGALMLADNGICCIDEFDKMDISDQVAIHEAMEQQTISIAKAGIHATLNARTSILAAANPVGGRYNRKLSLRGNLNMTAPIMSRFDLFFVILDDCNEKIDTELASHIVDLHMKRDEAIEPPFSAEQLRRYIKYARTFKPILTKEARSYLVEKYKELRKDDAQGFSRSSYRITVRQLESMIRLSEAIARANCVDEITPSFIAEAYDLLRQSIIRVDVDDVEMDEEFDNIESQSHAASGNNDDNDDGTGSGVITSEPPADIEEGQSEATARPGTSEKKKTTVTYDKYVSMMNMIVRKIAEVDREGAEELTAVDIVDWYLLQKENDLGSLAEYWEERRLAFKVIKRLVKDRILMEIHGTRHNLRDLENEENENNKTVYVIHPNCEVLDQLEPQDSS
PSF1: PSF1 (Saccharomyces cerevisiae, UniProt Q12488)
Chain of UniProt P29496 (whole entry, looked up): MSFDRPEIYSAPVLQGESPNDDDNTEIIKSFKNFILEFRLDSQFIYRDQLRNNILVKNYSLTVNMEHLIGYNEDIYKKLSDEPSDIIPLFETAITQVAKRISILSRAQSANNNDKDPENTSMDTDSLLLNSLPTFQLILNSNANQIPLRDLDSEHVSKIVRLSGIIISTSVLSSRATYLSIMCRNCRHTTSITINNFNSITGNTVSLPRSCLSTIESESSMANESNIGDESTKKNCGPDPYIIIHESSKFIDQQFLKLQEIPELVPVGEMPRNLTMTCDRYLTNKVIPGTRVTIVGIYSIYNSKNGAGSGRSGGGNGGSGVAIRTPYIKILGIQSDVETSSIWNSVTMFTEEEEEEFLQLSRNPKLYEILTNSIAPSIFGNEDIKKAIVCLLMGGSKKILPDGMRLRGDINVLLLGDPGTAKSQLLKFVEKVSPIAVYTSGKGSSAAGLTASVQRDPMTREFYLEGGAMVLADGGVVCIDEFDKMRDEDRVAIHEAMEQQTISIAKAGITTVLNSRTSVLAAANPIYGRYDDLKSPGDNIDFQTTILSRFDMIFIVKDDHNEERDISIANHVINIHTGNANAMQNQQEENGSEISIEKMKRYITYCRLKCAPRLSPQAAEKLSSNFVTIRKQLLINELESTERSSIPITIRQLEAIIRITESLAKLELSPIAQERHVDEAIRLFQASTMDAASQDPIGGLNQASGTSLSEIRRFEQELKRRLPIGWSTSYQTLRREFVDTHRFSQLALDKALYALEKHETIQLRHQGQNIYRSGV
Chain of UniProt P29469 (whole entry, looked up): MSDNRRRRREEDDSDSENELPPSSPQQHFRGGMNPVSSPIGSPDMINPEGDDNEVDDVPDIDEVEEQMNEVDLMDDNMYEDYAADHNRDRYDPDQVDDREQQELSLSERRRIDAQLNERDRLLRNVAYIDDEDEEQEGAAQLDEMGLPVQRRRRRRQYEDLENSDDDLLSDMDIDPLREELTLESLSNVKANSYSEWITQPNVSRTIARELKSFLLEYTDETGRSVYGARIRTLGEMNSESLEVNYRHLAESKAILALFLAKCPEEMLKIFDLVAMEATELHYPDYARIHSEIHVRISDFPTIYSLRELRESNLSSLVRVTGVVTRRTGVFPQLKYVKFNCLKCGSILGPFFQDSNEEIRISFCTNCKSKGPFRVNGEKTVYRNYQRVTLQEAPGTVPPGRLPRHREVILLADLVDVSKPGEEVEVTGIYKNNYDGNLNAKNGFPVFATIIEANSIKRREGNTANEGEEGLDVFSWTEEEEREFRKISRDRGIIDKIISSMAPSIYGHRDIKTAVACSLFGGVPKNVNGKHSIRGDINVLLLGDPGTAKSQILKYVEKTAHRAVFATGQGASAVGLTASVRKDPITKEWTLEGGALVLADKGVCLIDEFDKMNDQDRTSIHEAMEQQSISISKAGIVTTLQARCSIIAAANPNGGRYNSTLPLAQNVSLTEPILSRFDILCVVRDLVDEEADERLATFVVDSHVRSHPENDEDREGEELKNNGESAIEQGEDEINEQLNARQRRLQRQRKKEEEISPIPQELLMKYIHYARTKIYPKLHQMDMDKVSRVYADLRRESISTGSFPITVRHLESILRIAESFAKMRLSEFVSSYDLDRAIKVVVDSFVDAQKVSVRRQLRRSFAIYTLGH
Chain of UniProt P24279 (whole entry, looked up): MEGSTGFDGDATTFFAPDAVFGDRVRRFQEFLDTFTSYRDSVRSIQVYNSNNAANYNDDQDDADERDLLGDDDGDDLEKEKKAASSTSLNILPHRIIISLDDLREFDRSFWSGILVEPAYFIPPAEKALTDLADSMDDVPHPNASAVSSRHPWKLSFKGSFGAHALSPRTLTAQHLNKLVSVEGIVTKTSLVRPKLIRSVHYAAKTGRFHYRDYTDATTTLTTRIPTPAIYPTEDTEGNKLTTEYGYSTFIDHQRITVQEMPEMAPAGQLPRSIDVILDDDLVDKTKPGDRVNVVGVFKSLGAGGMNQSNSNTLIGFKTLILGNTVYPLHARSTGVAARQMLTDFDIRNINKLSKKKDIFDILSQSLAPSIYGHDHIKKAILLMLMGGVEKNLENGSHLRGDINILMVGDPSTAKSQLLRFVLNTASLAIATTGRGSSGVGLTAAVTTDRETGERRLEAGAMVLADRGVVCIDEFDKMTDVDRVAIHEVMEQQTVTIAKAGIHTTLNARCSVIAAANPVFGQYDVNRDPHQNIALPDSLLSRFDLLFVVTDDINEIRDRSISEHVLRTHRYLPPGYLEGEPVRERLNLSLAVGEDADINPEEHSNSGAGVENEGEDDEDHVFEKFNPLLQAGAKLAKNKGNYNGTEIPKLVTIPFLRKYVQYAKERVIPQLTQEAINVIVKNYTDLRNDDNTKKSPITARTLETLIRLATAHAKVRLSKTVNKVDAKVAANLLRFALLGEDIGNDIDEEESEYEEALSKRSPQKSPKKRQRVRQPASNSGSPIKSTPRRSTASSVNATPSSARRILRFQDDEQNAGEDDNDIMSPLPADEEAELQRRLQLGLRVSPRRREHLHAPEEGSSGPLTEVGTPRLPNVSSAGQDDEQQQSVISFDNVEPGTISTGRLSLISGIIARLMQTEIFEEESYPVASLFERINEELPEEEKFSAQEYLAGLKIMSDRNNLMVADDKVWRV
Chain of UniProt Q12488 (whole entry, looked up): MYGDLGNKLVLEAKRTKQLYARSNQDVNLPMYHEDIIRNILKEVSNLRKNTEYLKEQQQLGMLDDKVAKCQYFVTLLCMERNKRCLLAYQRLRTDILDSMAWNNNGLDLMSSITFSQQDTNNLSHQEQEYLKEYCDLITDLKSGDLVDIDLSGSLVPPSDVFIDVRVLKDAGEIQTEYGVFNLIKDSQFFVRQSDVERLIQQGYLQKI

`GSGAGIATEV` has a binding intensity of 0.868 (human SCRIB PDZ3-4 tandem (MBP fusion); automated holdup; peptide, crude extract; concentration not given, uncorrected, unit not given; baseline: biotin control resin, higher = stronger binding).
`SLC25A6 (Homo sapiens, UniProt P12236)` — result for interaction screen: “cross-linked” (Histone H3.1; cross-linking MS; hits only).
Under interaction screen, `NSE4 (Saccharomyces cerevisiae, UniProt P43124)` is recorded as “cross-linked” (SMC5; cross-linking MS; hits only).
`TUBA1A (Sus scrofa, UniProt P02550)` — result for interaction screen: “cross-linked” (TUBB (Sus scrofa, UniProt P02554); cross-linking MS; hits only).
For `MCM2 (Saccharomyces cerevisiae, UniProt P29469)`, interaction screen read “cross-linked” (CDC45 (Saccharomyces cerevisiae, UniProt Q08032); cross-linking MS; hits only).
`MCM2 (Saccharomyces cerevisiae, UniProt P29469)`: interaction screen “cross-linked” (MCM6; cross-linking MS; hits only).
`MMS21 (Saccharomyces cerevisiae, UniProt P38632)`: interaction screen “cross-linked” (SMC5; cross-linking MS; hits only).
Under interaction screen, `H2AX (Homo sapiens, UniProt P16104)` is recorded as “cross-linked” (Histone H3.1; cross-linking MS; hits only).
With `colistin` the MIC was ≤ 0.5 µg/mL (Escherichia coli; broth microdilution; clinical isolate RKI-No_590/16).
For `MYL12A (Homo sapiens, UniProt P19105)`, interaction screen read “cross-linked” (MYH9 (Homo sapiens, UniProt P35579); cross-linking MS; hits only).
`MCM3 (Saccharomyces cerevisiae, UniProt P24279)`: interaction screen “cross-linked” (MCM5 (Saccharomyces cerevisiae, UniProt P29496); cross-linking MS; hits only).
`GSGAGHETIV` gave a binding intensity of 0.445 (human SCRIB PDZ3-4 tandem (MBP fusion); automated holdup; peptide, crude extract; concentration not given, corrected by standard peak, unit not given; baseline: biotin control resin, higher = stronger binding).
`Histone H2B type 1-C/E/F/G/I (Homo sapiens, UniProt P62807)` — result for interaction screen: “cross-linked” (Histone H3.1; cross-linking MS; hits only).
Under interaction screen, `CDC6 (Saccharomyces cerevisiae, UniProt P09119)` is recorded as “cross-linked” (ORC6 (Saccharomyces cerevisiae, UniProt P38826); cross-linking MS; hits only).
`MCM3 (Saccharomyces cerevisiae, UniProt P24279)` — result for interaction screen: “cross-linked” (PSF1; cross-linking MS; hits only).
For `HHF1 (Saccharomyces cerevisiae, UniProt P02309)`, interaction screen read “cross-linked” (HTA1 (Saccharomyces cerevisiae, UniProt P04911); cross-linking MS; hits only).
For `MCM5 (Saccharomyces cerevisiae, UniProt P29496)`, interaction screen read “cross-linked” (MCM6; cross-linking MS; hits only).
`PSF3 (Saccharomyces cerevisiae, UniProt Q12146)` — result for interaction screen: “cross-linked” (PSF1; cross-linking MS; hits only).
For `NSE5 (Saccharomyces cerevisiae, UniProt Q03718)`, interaction screen read “cross-linked” (SMC5; cross-linking MS; hits only).
`ORC5 (Saccharomyces cerevisiae, UniProt P50874)`: interaction screen “cross-linked” (ORC3 (Saccharomyces cerevisiae, UniProt P54790); cross-linking MS; hits only).
Under interaction screen, `H2BC18 (Homo sapiens, UniProt Q5QNW6)` is recorded as “cross-linked” (H2AC18 (Homo sapiens, UniProt Q6FI13); cross-linking MS; hits only).
Under interaction screen, `MCM5 (Saccharomyces cerevisiae, UniProt P29496)` is recorded as “cross-linked” (MCM4 (Saccharomyces cerevisiae, UniProt P30665); cross-linking MS; hits only).
For `H2AC11 (Homo sapiens, UniProt P0C0S8)`, interaction screen read “cross-linked” (H3-3A (Homo sapiens, UniProt P84243); cross-linking MS; hits only).
`TAH11 (Saccharomyces cerevisiae, UniProt P47112)` — result for interaction screen: “cross-linked” (MCM6; cross-linking MS; hits only).
